# Published values pooled from the literature.
# Several values in a cell are separate wells, animals, samples, runs or records. Numbers after ± are the reported error.
# Sequence of UniProt P27361 (whole entry, looked up): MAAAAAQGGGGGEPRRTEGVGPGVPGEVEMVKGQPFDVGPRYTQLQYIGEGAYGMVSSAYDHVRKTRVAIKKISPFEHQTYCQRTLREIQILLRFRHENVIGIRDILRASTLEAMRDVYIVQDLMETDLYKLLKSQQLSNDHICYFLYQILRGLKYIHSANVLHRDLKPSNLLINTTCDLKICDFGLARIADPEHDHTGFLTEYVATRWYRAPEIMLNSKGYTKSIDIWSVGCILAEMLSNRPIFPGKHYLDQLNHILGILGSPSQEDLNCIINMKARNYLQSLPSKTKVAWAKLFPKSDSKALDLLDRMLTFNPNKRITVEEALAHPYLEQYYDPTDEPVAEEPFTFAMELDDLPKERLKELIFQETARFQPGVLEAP
# Sequence of UniProt P06276 (whole entry, looked up): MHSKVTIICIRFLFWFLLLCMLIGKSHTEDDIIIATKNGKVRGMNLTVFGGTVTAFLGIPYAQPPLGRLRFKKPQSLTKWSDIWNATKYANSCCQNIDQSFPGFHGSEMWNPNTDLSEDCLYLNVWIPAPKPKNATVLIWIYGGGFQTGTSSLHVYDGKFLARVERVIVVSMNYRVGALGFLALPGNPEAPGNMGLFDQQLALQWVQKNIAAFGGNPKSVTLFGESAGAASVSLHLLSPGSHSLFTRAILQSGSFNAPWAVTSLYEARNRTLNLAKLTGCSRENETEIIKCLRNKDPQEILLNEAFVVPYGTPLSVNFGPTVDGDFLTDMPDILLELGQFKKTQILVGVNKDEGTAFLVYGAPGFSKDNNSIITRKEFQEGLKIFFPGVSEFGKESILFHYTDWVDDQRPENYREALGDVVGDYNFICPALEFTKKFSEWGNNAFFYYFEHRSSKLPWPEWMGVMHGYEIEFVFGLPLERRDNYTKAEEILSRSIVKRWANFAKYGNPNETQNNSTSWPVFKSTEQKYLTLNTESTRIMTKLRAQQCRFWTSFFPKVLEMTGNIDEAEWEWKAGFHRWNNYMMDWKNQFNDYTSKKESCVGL
# Sequence of UniProt Q62351 (whole entry, looked up): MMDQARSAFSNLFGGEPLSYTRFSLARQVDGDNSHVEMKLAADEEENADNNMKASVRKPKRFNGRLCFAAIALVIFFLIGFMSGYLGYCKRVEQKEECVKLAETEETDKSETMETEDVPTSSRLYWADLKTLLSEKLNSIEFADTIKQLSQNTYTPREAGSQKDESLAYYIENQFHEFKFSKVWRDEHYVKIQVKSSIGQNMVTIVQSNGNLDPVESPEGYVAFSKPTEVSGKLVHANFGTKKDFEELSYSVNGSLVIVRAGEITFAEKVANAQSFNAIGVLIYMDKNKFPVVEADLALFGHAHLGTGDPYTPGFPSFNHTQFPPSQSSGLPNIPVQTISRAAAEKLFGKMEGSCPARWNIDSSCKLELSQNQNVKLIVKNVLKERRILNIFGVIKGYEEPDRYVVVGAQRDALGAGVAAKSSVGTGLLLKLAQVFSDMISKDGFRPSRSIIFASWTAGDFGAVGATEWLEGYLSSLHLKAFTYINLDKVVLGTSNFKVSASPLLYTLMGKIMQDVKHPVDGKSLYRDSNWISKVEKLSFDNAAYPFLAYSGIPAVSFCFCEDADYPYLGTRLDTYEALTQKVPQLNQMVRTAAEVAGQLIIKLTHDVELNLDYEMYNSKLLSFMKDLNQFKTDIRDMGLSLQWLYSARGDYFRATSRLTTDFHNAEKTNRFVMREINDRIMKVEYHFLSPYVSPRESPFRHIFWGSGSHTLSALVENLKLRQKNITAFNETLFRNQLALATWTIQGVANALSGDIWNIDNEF
# Sequence of UniProt P10275 (whole entry, looked up): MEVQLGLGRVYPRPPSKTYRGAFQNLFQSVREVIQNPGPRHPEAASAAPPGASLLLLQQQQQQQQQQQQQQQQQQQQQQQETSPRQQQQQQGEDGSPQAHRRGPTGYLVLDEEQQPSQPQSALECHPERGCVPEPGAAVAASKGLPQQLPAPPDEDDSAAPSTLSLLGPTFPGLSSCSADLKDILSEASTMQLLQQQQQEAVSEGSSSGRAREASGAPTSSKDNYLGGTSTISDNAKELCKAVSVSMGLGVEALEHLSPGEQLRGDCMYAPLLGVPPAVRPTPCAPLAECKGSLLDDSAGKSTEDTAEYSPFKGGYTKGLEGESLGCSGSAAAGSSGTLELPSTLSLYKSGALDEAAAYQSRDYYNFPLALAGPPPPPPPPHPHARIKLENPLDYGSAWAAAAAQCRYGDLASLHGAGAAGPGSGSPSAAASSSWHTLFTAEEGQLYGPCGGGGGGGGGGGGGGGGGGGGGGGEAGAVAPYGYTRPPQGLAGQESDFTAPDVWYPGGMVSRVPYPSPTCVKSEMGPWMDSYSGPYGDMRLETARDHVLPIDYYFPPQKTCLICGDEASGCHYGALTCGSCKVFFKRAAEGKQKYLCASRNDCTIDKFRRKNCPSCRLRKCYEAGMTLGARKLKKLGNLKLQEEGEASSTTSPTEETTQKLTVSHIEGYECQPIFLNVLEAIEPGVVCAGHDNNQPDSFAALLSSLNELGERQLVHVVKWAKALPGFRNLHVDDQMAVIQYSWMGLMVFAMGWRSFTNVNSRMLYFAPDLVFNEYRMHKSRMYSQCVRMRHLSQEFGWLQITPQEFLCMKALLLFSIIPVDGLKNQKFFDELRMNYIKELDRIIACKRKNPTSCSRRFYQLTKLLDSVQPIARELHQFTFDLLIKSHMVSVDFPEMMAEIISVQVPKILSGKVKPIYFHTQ
# Sequence of UniProt O75385 (whole entry, looked up): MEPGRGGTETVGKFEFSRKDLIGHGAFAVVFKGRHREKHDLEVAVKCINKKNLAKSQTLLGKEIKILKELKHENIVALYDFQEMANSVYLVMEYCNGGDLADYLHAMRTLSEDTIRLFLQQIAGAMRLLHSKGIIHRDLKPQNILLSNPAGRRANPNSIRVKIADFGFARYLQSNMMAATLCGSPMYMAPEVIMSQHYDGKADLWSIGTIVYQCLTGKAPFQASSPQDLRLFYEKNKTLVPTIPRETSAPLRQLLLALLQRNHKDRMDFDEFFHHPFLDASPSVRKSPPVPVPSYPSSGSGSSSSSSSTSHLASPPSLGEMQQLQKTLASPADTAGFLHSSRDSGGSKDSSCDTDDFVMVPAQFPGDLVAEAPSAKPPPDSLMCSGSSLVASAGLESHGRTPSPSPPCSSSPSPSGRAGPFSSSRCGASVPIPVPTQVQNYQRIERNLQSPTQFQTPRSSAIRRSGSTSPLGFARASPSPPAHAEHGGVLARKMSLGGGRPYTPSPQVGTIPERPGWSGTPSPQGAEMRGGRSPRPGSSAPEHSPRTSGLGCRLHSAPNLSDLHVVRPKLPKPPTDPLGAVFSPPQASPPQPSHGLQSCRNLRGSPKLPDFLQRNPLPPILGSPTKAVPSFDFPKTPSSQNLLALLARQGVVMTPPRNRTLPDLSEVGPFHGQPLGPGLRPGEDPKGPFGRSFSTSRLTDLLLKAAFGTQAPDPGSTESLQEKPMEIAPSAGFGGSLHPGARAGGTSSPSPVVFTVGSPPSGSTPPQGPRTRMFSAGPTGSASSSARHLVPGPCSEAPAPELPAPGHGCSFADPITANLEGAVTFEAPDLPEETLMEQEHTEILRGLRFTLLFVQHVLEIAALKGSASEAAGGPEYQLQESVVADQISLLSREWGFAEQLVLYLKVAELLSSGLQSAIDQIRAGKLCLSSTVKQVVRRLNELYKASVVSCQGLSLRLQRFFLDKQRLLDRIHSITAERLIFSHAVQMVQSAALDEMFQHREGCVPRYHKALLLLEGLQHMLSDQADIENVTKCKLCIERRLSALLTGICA
# Sequence of UniProt P35462 (whole entry, looked up): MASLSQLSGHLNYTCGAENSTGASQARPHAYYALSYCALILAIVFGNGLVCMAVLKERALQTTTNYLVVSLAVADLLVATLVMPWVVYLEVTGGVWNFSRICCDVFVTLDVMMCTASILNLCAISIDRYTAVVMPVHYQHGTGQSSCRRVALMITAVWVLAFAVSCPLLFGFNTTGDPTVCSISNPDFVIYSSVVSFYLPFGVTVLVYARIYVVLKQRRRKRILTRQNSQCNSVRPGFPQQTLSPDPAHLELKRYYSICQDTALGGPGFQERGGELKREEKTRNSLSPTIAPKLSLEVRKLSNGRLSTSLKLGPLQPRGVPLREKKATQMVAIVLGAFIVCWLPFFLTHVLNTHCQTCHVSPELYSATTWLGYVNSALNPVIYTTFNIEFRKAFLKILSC
# Sequence of UniProt P49759 (whole entry, looked up): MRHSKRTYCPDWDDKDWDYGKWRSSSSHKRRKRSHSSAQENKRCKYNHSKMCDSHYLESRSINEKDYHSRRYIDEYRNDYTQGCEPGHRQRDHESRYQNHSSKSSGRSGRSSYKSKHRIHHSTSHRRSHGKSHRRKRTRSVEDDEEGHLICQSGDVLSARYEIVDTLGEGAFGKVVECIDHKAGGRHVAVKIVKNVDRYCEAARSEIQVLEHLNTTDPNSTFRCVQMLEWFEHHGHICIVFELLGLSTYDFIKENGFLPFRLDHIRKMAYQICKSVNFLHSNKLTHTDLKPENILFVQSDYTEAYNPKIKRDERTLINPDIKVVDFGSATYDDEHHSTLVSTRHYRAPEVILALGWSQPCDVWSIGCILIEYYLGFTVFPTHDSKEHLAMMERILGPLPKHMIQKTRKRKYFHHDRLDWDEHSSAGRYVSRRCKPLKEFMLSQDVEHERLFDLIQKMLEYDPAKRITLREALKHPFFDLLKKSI
# Sequence of UniProt Q15759 (whole entry, looked up): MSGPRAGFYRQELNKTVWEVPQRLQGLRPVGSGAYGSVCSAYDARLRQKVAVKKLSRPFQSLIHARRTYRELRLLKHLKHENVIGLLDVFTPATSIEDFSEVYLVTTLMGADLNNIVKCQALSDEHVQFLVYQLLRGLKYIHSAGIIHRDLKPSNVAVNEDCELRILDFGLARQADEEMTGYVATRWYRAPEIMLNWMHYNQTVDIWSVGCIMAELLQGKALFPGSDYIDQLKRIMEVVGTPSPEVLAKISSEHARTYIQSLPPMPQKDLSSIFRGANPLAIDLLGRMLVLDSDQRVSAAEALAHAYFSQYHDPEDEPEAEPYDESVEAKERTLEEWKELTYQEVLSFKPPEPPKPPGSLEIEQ
Compound,target or system,test,test system,setting,how to read,measurement,value
Cc1cn([C@H]2C[C@H](O)[C@@H](COP(=O)(O)OP(=O)(O)OP(=O)(O)O)O2)c(=O)[nH]c1=O,"Gag-Pol polyprotein, reverse transcriptase (gag-pol, Human immunodeficiency virus type 1 group M subtype B, UniProt P04585, K653A)","nucleotide misincorporation, steady-state kinetics",,"K66A RT, with: matched template/primer, template T",,kcat,0.0362 ± 0.0203 s⁻¹
CC[C@@H](C)[C@@H](NC(=O)[C@@H](Cc1ccc(O)cc1)NC(=O)[C@H]1CCCN1C(=O)[C@@H](CCCNC(=N)N)NC(=O)[C@H](N)Cc1c[nH]cn1)C(=O)N[C@H](C)C(=O)N[C@H](Cc1c[nH]cn1)C(=O)N[C@H](CCCNC(=N)N)C(=O)N[C@H](CCCCNC(=O)c1cccc(S(=O)(=O)F)c1)C(=O)N[C@H](Cc1ccc(O)cc1)C(=O)N[C@H](CO)C(=O)N[C@H](Cc1ccccc1)C(N)=O,"Transferrin receptor protein 1 (Tfrc, Mus musculus, UniProt Q62351)",flow cytometry,MC-38,"6 h, unit not given",reference: 0 h,surface expression,0.972 and 0.981
CO/N=C(\C(=O)N[C@@H]1C(=O)N2C(C(=O)O)=C(CSc3nc(=O)c(=O)[nH]n3C)CS[C@H]12)c1csc(N)n1,"Penicillin-binding protein 1A (pbpA, Streptococcus pneumoniae, UniProt Q8DR59)",inhibitor,,,,kinact/KI,1700 ± 170 M⁻¹ s⁻¹
Oc1cc(Cl)cc(-c2cccc(Cl)c2)c1,"Androgen receptor (AR, Homo sapiens, UniProt P10275)","reporter gene, antagonist",,"5 µM, with: DHT 2 nM",reference: DHT 2 nM,maximum activity,18%
O=C(Nc1cnccc1Cl)N1CCN(Cc2ccc3c(c2)OC(F)(F)O3)CC1,"BDKRB2 (Homo sapiens, UniProt P30411)",binding,,"10 µM, with: [3H]bradykinin",,inhibition,1%
Nc1ncnc2c1ncn2[C@@H]1O[C@H](COP(=O)(O)OP(=O)(O)NP(=O)(O)O)[C@@H](O)[C@H]1O,"Cell cycle histidine kinase CckA, G318A; cytoplasmic region (Caulobacter vibrioides, UniProt Q9X688, G318A)",isothermal titration calorimetry,Caulobacter crescentus,"concentration not given, 12 °C, with: without c-di-GMP",,binding enthalpy (ΔH),-4.9 kcal/mol
[2H]c1c([2H])c([C@]2([2H])CCCN2C(=O)C(C)(C)Oc2ccc3cn[nH]c3c2)c([2H])c([2H])c1C([2H])([2H])[2H],"FER (Homo sapiens, UniProt P16591)",KINOMEscan,,1 µM,reference: DMSO control,remaining binding,80%
COC(=O)[C@@]1(O)C[C@H]2O[C@]1(C)n1c3ccccc3c3c4c(c5c6ccccc6n2c5c31)C(=O)NC4,"MAPK3 (Homo sapiens, UniProt P27361)",ADP-Glo,,"100 nM, with: MBP substrate",,kinase activity,65.1% and 56.5% and 40.5%
CCCCCCCCCCCCc1ccc([C@H]2CC[C@H]([N+](C)(C)CCC)CC2)cc1.[I-],"SPHK1 (Homo sapiens, UniProt Q9NYA1)","inhibitor, radiometric flash-plate",cell lysate,with: sphingosine 10 µM,,Ki/Km ratio,1.3
Clc1ccc(Nc2nc3ccccc3c3nc(C4CCCCC4)[nH]c23)cc1Cl,"Cholinesterase (BCHE, Homo sapiens, UniProt P06276)",,biochemical,concentration not given,,activity class,inactive
CCC1(C2=NCCN2)Cc2ccccc2O1 (stereo not drawn),Plasmodium falciparum,,GB4,,,IC50,12.6 µM
CN1CCN(c2cc(-c3ccncc3)c(-c3ccc4ccccc4c3)nn2)CC1,"FFAR4 (Homo sapiens, UniProt Q5NUL3)","agonist, FLIPR",,12.5 µM,,activation,-0.1%
COc1cc(Nc2ncc(F)c(Nc3ccc4c(n3)NC(=O)C(C)(C)O4)n2)cc(OC)c1OC,"ULK1 (Homo sapiens, UniProt O75385)",KINOMEscan,,10 µM,,inhibition,100%
COc1cc2nc(N3CCN(C(=O)C4COc5ccccc5O4)CC3)nc(N)c2cc1OC (stereo not drawn),Plasmodium falciparum,,HB3,,,IC50,2.51 µM
O=C(Nc1cccnn1)N1CCC(=Cc2cccc(Oc3ccc(C(F)(F)F)cn3)c2)CC1,"Abhydrolase domain-containing protein 11 (Rattus norvegicus, UniProt D3ZXK4)","probe labelling, inhibitor, competitive ABPP with azido-FP probe, measured: Abhd11",rat brain membrane fraction,0.1 µM,,inhibition,4.3%
COc1ncccc1-c1cnn2ccc(N3CCN(C(=O)OC(C)C)CC3)nc12,"Ribosomal protein S6 kinase alpha-1, C-terminal kinase domain (RPS6KA1, Homo sapiens, UniProt Q15418)",KINOMEscan binding,,1 µM,reference: untreated control,remaining binding,100%
COc1ccc(N2C(=O)N(c3c(C)cccc3Cl)Cc3cnc(Nc4ccc(C5CCN(C)CC5)cc4OC)nc32)nc1,"MAP3K7 (Homo sapiens, UniProt O43318)","kinase activity, inhibitor",,"0.5 µM, kinase TAK1-TAB1",,inhibition,2%
Cc1cc(=O)oc2cc(OCCCC[Se]C#N)ccc12,"CA12 (Homo sapiens, UniProt O43570)",stopped-flow CO2 hydration,,,reference: Ki CA II over Ki CA XII,selectivity ratio,> 1940
C[C@H]1COCCN1c1nc(NCc2cccnc2C(F)(F)F)c2cccnc2n1,"Insulin receptor (INSR, Homo sapiens, UniProt P06213)",binding,,CEREP panel,,IC50,> 100 µM
CC[C@H]1NC(=O)[C@@H]2CSC(=N2)[C@@H](Cc2ccccc2)N(C)C(=O)[C@@H]2CCCN2C(=O)[C@H](C(C)C)N(C)C(=O)[C@H](Cc2ccccc2)OC(=O)[C@H](C)[C@@H](C)NC(=O)[C@@H]([C@@H](C)O)NC(=O)[C@@H](CC(C)C)N(C)C(=O)[C@@H]2CSC1=N2,"PROC (Homo sapiens, UniProt P04070)",,,20 µM,reference: solvent control,remaining activity,14%
CC(=O)P(=O)(O)OCCc1cn([C@H](Cc2ccccc2)C(=O)O)nn1,"dxs (Pseudomonas aeruginosa, UniProt Q9KGU7, R106A)",,,"concentration not given, variant enzyme",reference: wild type,Ki fold change,16.5 fold
Nc1nc2c(ncn2[C@@H]2O[C@H](COP(=O)(O)OP(=O)(O)OP(=O)(O)O)[C@@H](O)[C@H]2O)c(=O)[nH]1,"GTP 3',8-cyclase (moaA, Staphylococcus aureus, UniProt P69848, R266A)",isothermal titration calorimetry,,"concentration not given, 25 °C, R266A mutant, anaerobic",,binding entropy ΔS,5.27 cal/mol/K
CN(C(=O)n1cnc(-c2ccc[n+]([O-])c2)c1)C1CCCCC1,"glycine transporter, rat",binding,,"50 µM, with: [3H]glycine",,inhibition,-1%
Cc1[nH]c(C)c(S(=O)(=O)Nc2ccc(S(F)(F)(F)(F)F)cc2)c1C(=O)N(C)C,"DRD3 (Homo sapiens, UniProt P35462)","β-arrestin recruitment, agonist, PathHunter",,,reference: dopamine,Imax,92 ± 1%
C=CC[N+]1([C@H]2C[C@H]3[C@@H]4CC[C@H]5C[C@H](OC(C)=O)[C@@H](N6CCCCC6)C[C@]5(C)[C@H]4CC[C@]3(C)[C@H]2OC(=O)CC)CCCCC1,"Cholinesterase (BCHE, Homo sapiens, UniProt P06276)",,,"concentration not given, Triton",,efficacy,-115 ± 8.76%
C[C@H]1CN(c2n[nH]c3nc(N[C@H]4CC[C@H](NS(=O)(=O)CCC(F)(F)F)CC4)ncc23)CCO1,"MAPK11 (Homo sapiens, UniProt Q15759)",Kinobeads competition,"HEK293, K562, placenta lysate","0.16 µM, unit not given",reference: vehicle,remaining binding,0.68
CC[C@H](CO)Nc1nc(NCc2ccc(-c3ccccn3)cc2)c2ncn(C(C)C)c2n1,"CLK1 (Homo sapiens, UniProt P49759)",KINOMEscan competition binding,,"10 µM, primary screen",direction not given,binding score,5.1
O=C(/C=C/c1ccc(OC(=O)N2CCCC2)cc1)NC1CCN(Cc2ccccc2)CC1,"Cholinesterase (BCHE, Equus caballus, UniProt P81908)",Ellman,equine serum BuChE,,reference: AChE IC50 over BuChE IC50,selectivity ratio,0.2
O=C(c1ccc(Cl)cc1)N1CCN2C(=O)N(OC(=O)N3CCOc4ccccc43)C(=O)C2C1 (stereo not drawn),"Biotinidase (Homo sapiens, UniProt P43251)",MS-based ABPP,SW-620 conditioned medium,"10 µM, 1 h, 37 °C, median protein ratio",reference: compound over DMSO,probe labelling ratio,1.76
COc1cc(N)c(Cl)cc1C(=O)NC1CN2CCC1CC2 (stereo not drawn),"Mas-related G-protein coupled receptor member G (MRGPRG, Homo sapiens, UniProt Q86SM5)","β-arrestin recruitment, TANGO luminescence, measured: MRGPRG",,concentration not given,reference: basal luminescence,log2 fold change,0.002

# For quick reference, copied from above:
Compound,target or system,test,test system,setting,how to read,measurement,value
CO/N=C(\C(=O)N[C@@H]1C(=O)N2C(C(=O)O)=C(CSc3nc(=O)c(=O)[nH]n3C)CS[C@H]12)c1csc(N)n1,"Penicillin-binding protein 1A (pbpA, Streptococcus pneumoniae, UniProt Q8DR59)",inhibitor,,,,kinact/KI,1700 ± 170 M⁻¹ s⁻¹
Oc1cc(Cl)cc(-c2cccc(Cl)c2)c1,"Androgen receptor (AR, Homo sapiens, UniProt P10275)","reporter gene, antagonist",,"5 µM, with: DHT 2 nM",reference: DHT 2 nM,maximum activity,18%
O=C(Nc1cnccc1Cl)N1CCN(Cc2ccc3c(c2)OC(F)(F)O3)CC1,"BDKRB2 (Homo sapiens, UniProt P30411)",binding,,"10 µM, with: [3H]bradykinin",,inhibition,1%
